Results collected from several papers.
Parts stem from different laboratories: compare values within a part only.

Block 1
Target: Replicase polyprotein 1ab, polymerase (rep, Severe acute respiratory syndrome coronavirus 2, UniProt P0DTD1)
Effect on: enzyme activity
Action: inhibitor
Concentration: 20 µM
| SMILES | inhibition |
| --- | --- |
| c1ccc(CN(CC2=NCCN2)c2ccccc2)cc1 | 23.3% |
| CCO[C@@H](Cc1ccc(OCCn2c(C)ccc2-c2ccc(SC)cc2)cc1)C(=O)O | 0.42% |
| Cn1cc(C(=O)[C@@H]2CCc3[nH]cnc3C2)c2ccccc21 | 3.99% |
| COc1ccc(C(=O)c2c(C)n(CCN3CCOCC3)c3cc(I)ccc23)cc1 | -0.48% |
| CC(CC(c1ccccc1)c1ccccc1)NC(C)(C)C (centres unmarked) | -4.18% |
| CCCC(C)(COC(N)=O)COC(=O)NC(C)C (centres unmarked) | 0.88% |
| CCN1CCN(c2ccc(C(C)(C)NC(=O)c3cc4[nH]c5ccccc5c(=O)c4cc3F)cn2)CC1 | 5.93% |
| CCCCNc1ccc(C(=O)OCCN(C)C)cc1 | 24.8% |
| Cc1ccc(=O)n(-c2ccccc2)c1 | -11.2% |
| COc1cc(C(=O)OCCCN2CCCN(CCCOC(=O)c3cc(OC)c(OC)c(OC)c3)CC2)cc(OC)c1OC | 1.92% |
| O=C(O)c1ccccc1NCCc1ccccc1 | 3.3% |
| N#C/C(=C\c1ccc(O)c(O)c1)C(=O)NCCCc1ccccc1 | 99.1% |
| CC(C)(O)C(Cl)(Cl)Cl | 16.6% |
| Cc1cc(Nc2ncnc3ccc(-c4ccc(CNCCS(C)(=O)=O)o4)cc23)ccc1Oc1ccn2ncnc2c1 | 15.8% |
| Cc1ccc(S(=O)(=O)NC(=O)NN2CCCCCC2)cc1 | 21.9% |
| CC(C)(C)NCC(O)c1ccc(O)cc1Cl (centres unmarked) | -8.53% |
| N[C@@H](CSC(c1ccccc1)(c1ccccc1)c1ccccc1)C(=O)O | 0.74% |
| CCCCOC(=O)c1ccc(N)cc1 | 18.8% |
| O=[N+]([O-])c1ccc2c(c1)S(=O)(=O)C=C2 | 6.84% |
| CN(C)CCCN1c2ccccc2Sc2ccc(Cl)cc21 | 17.6% |
| N[C@H](C(=O)O)c1ccc(C(=O)O)c(O)c1 | -1.79% |
| c1ccc(Cn2c(-c3ccc(OC[C@H](C4CCNCC4)n4c(-c5ccccc5)nc5ccccc54)cc3)nc3ccccc32)cc1 | 25.8% |
| CC(C)Cn1cnc2c(N)nc3ccccc3c21 | -7.25% |
| C[C@H](C[C@H](N)C(=O)O)C(=O)O | -7.26% |
| C=CC[N+]1([C@H]2C[C@H]3[C@@H]4CC[C@H]5C[C@H](O)[C@@H](N6CCOCC6)C[C@]5(C)[C@H]4CC[C@]3(C)[C@H]2OC(C)=O)CCCC1 | -0.89% |

Block 2
Target: Sal-like protein 4, full length isoform A (SALL4, Homo sapiens, UniProt Q9UJQ4, residues 1-1053)
Chain of UniProt Q9UJQ4 (whole entry, looked up): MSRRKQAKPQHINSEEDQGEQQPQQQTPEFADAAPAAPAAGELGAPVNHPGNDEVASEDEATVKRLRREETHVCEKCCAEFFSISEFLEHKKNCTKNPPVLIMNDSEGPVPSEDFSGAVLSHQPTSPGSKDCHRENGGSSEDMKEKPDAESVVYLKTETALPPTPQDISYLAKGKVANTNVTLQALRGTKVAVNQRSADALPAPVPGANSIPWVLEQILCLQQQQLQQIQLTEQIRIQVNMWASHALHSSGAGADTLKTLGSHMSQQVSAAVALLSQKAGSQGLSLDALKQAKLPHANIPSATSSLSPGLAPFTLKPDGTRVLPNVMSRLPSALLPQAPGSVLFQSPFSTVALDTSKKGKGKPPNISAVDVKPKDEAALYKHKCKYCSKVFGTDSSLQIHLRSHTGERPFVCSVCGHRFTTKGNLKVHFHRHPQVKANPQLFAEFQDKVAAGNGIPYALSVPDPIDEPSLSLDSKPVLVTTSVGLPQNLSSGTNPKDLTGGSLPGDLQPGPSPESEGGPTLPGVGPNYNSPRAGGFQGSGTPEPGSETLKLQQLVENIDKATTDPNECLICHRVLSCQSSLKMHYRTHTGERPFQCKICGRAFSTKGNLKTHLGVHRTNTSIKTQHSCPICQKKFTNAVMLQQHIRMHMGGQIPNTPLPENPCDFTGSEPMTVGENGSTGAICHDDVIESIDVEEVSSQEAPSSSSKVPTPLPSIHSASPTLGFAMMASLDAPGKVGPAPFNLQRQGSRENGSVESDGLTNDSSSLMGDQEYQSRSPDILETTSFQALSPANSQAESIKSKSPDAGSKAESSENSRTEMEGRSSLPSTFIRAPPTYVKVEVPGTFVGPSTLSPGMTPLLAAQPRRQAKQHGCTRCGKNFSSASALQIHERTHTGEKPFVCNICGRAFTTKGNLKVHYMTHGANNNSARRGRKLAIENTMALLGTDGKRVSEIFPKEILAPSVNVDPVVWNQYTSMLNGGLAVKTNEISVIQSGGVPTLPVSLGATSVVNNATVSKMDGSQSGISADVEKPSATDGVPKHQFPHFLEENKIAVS
Technique: universal PBM
Form: double-stranded DNA, one strand shown
Medium: in vitro
Concentration: 600 nM
Notes: 8-mer, flanks averaged, mean of replicates
Reading: higher = stronger binding
| Sequence | E-score |
| --- | --- |
| AACGAGCC | -0.157 |
| CCGGCAGG | -0.273 |
| AGTTTAGA | 0.201 |
| CACTATCC | -0.0471 |
| CAGTACCG | -0.211 |
| TCTGAGAA | 0.145 |
| AGTCAAAG | 0.0265 |
| GCGGTCCC | -0.355 |

Block 3
Target: Histone acetyltransferase KAT6A, winged helix 2, GST fusion (KAT6A, Homo sapiens, UniProt Q92794, residues 85-181)
Technique: protein binding microarray
Form: double-stranded DNA, one strand shown
Medium: in vitro
Concentration: not given
Notes: 8-mer, flanks averaged, mean of 2 arrays, mostly near background
Reference: not given
Reading: higher = stronger binding
Residues (chain): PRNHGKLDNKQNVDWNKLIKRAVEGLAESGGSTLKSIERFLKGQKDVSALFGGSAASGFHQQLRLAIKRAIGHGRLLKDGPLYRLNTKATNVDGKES
| Sequence | E-score |
| --- | --- |
| CGCTAGGC | 0.0719 |
| AATTGAAC | -0.15 |
| AAACGTAG | -0.279 |
| ACAGATTC | -0.044 |
| AGGAGTTC | -0.134 |
| ACCTCCAG | 0.072 |
| TACTTCTA | -0.0821 |
| GGCTCAGA | 0.0281 |

Block 4
Target: Replicase polyprotein 1ab, main protease (rep, Severe acute respiratory syndrome coronavirus 2, UniProt P0DTD1)
Effect on: enzyme activity
Action: inhibitor
Concentration: 20 µM
Notes: primary screen
| Compound | inhibition |
| --- | --- |
| CC(C)Nc1cccnc1N1CCN(C(=O)c2cc3cc(NS(C)(=O)=O)ccc3[nH]2)CC1 | 82% |
| S=C=NCc1ccccc1 | 68.7% |
| CC(=O)[O][Pt]([NH2])([Cl])([Cl])([NH]C1CCCCC1)[O]C(C)=O | 95.9% |
| CCO/N=C(/C(=O)N[C@@H]1C(=O)N2C(C(=O)O)=C(Sc3nc(-c4cc[n+](C)cc4)cs3)CS[C@H]12)c1nsc(NP(=O)(O)O)n1 | 26.9% |

Block 5
Cell line: HEK-293T/ACE2
Concentration: 10 µM
Time: 16 h
Reference: vehicle
| SMILES | viability |
| --- | --- |
| CC1(C)O[C@@H]2C[C@H]3[C@@H]4CCC5=CC(=O)C=C[C@]5(C)[C@@]4(F)[C@@H](O)C[C@]3(C)[C@]2(C(=O)CO)O1 | 103% |
| Nc1nc2c(ncn2COCCO)c(=O)[nH]1 | 101% |
| Nc1nnc(-c2cccc(Cl)c2Cl)c(N)n1 | 103% |

Block 6
Target: TAR DNA-binding protein 43, full length, His tag (TARDBP, Homo sapiens, UniProt Q13148, residues 1-414)
Technique: RNA Bind-n-Seq
Form: RNA
Medium: in vitro
Concentration: 20 nM
Notes: 6-mer, flanks averaged, single round
With: 150 mM KCl
Reference: input library
Reading: higher = stronger binding
| Sequence | 6-mer enrichment (R) |
| --- | --- |
| UGUGGU | 1.47 |
| CAUGUC | 0.627 |
| CUGGUU | 0.699 |
| CGACAA | 0.661 |
| UCCUUU | 0.607 |
| GUUGAG | 1.45 |
| UGCAGG | 1.66 |
| GAAUCG | 0.905 |

Repeated from above (block 1):
| SMILES | inhibition |
| --- | --- |
| O=[N+]([O-])c1ccc2c(c1)S(=O)(=O)C=C2 | 6.84% |
| CN(C)CCCN1c2ccccc2Sc2ccc(Cl)cc21 | 17.6% |
| N[C@H](C(=O)O)c1ccc(C(=O)O)c(O)c1 | -1.79% |
| c1ccc(Cn2c(-c3ccc(OC[C@H](C4CCNCC4)n4c(-c5ccccc5)nc5ccccc54)cc3)nc3ccccc32)cc1 | 25.8% |
